Assay results of several laboratories.
Parts stem from different laboratories: compare values within a part only. Positions count from the first letter of the parent shown.

Sample 1
Target: CREB3, bZIP domain (human)
Technique: DHFR protein complementation
Medium: yeast
Setting: single substitutions, most at no-binding floor
Relative to: wild-type JUN-FOS pair
Direction: higher = stronger binding
Starting sequence: JUN, bZIP domain (human); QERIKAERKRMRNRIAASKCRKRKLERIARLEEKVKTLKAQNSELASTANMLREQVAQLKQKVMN; partner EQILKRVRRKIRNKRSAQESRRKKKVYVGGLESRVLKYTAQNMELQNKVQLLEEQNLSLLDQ
| Substitution | binding fitness [natural log] |
| --- | --- |
| A29L | -1.51 |
| Q55E | -1.53 |
| L31F | -1.58 |
| V35H | -1.43 |
| L45N | -1.51 |
| V35M | -1.4 |
| M51K | -1.5 |
| E33V | -1.43 |
| L45P | -1.5 |
| I28W | -1.52 |
| E33R | -1.44 |
| N42A | -1.47 |
| V35Y | -1.54 |

Sample 2
Target: CCNF, cyclin fold, Cln2 fusion (human)
Technique: yeast growth competition, sequencing
Medium: yeast
Setting: strong parent motif
Relative to: not given
Direction: higher = stronger binding
Starting sequence: GMNC docking peptide (human); KNAKRNLSSEFAN
| Substitution | normalised enrichment score |
| --- | --- |
| E10M | 0.811 |
| F11G | 0.308 |
| A12V | 0.374 |
| K4S | -0.0809 |
| S9I | 1.49 |
| L7E | 0.535 |
| A3Q | 0.307 |
| R5L | 0.505 |
| S9A | 0.883 |
| L7A | 0.678 |
| A3I | 1.15 |
| L7M | 0.661 |
| A3F | 0.72 |
| N6I | 0.223 |
| A3W | 0.767 |
| N2A | 0.56 |
| R5N | 0.353 |
| A3K | 0.732 |
| F11C | 0.469 |
| L7C | -0.0511 |
| N2W | 0.545 |
| E10P | 0.161 |
| N6T | 0.432 |
| K4N | 0.592 |
| N2L | 0.796 |

Sample 3
Target: Interferon regulatory factor 3, full length, phosphomimetic (IRF3, Homo sapiens, UniProt Q14653, residues 1-427, S386D/S396D/S398D/S402D/T404D/S405D)
Chain of UniProt Q14653 (whole entry, unmodified, looked up): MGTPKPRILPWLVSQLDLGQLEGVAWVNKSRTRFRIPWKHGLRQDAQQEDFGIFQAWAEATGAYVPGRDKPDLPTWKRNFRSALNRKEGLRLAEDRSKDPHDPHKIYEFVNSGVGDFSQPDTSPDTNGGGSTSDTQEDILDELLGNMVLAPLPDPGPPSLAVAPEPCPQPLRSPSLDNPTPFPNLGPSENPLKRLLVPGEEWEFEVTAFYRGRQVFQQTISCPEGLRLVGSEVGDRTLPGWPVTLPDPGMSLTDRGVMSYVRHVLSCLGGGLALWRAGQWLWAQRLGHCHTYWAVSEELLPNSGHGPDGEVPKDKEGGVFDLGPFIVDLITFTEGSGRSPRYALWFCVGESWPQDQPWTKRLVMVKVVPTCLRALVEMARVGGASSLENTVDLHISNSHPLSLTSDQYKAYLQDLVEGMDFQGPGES
Technique: protein-binding microarray
Molecule type: double-stranded DNA, one strand shown
Medium: in vitro
Tested at: 2540 nM top
Setting: 60-bp whole probe
With: salmon DNA 0.4 mg/ml
Relative to: random background probes
Direction: higher = stronger binding
All sequences stand within: GCCTAGCAC … GTCTTGATTCGCTTGACGCTGCTG
| Sequence | fitted relative affinity [z-score] |
| --- | --- |
| GACGGACTCGGGTTTCGGGACGTGCTA | 0.869 |
| TTAGTTTTCAGTATCGATTAGTGCTAG | 3.37 |
| TTGTCTCTGTCCCTGTTTCTGTGCTAG | 0.656 |
| GACGGTATCCTACGGCTGACGTGCTAG | 0.672 |
| GACGGTTTTCTTTTCCTGACGTGCTAG | 5.33 |
| CTCTTTGTTTCACTTCCTGGTGTGCTA | 4.23 |
| GGTGCTGTTTACATAGTTCTGTGCTAG | 3.63 |
| GTCGGACTGGGGTATCGGGACGTGCTA | -0.309 |
| GACGATATCGAGTTTCGAGACGTGCTA | 1.31 |
| TCCATTTTTACCCTCCTTACGTGCTAG | 2.06 |
| TGATGACTGGAGTCTGGACTAGTGCTA | -0.942 |
| GACGGACTGGCTTTCGGGACGTGCTAG | -0.209 |
| CACGATTCCAGTTTCGAGACGTGCTAG | 2.95 |
| GAGCCCGGGGTGTAAGCAACGTGCTAG | -1.34 |
| TTAGAACTGGGGTATAGATTAGTGCTA | -0.69 |
| TCAAATTAGTGTTTTGCACTGTGCTAG | 0.0921 |
| TTTGGTTTCTGGTTTATTGAGTGCTAG | 3.01 |
| TCATCTCTGCCACTCAGACTGTGCTAG | 0.577 |
| CTGCCTTCAGAGCTGTCTGTGTGCTAG | -0.562 |
| TGAGATTTCAGTCTCGATTAGTGCTAG | 2.08 |
| CACGGTATCCTTCTCCTGACGTGCTAG | 6.83 |

Sample 4
Target: Ras GTPase-activating protein-binding protein 1, full length (G3BP1, Homo sapiens, UniProt Q13283)
Chain of UniProt Q13283 (whole entry, looked up): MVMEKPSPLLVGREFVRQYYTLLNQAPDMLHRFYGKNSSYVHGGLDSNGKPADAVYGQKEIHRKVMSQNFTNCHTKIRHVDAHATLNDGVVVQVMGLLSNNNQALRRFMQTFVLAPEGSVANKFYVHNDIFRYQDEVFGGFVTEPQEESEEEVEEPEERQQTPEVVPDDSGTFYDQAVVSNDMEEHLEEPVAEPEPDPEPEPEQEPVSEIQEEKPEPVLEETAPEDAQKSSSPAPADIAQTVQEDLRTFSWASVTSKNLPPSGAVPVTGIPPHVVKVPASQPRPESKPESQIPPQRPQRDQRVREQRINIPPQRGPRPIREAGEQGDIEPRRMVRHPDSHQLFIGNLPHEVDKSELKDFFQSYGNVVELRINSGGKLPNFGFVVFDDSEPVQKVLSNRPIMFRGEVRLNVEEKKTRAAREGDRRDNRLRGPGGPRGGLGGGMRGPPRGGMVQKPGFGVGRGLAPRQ
Technique: RNA Bind-n-Seq
Molecule type: RNA
Medium: in vitro
Tested at: 200 nM
Setting: whole 134-nt RNA, ends assumed
With: 150 mM KCl
Relative to: input library
Direction: higher = stronger binding
| Sequence | log2 enrichment |
| --- | --- |
| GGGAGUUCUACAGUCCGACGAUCGCAGGAAGUAAAAACAAAUGGAAAUGCUUCGGAUAGUGGCAGGGGUGGGGGUUGCUAAGGAAAGGGUGGGAUGGGAGUGGGUAAAGAAAUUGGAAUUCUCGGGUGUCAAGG | 1.28 |
| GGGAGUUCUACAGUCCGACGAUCCACAGACAACACGCACCCACACAGACACAGAGGGAAGGGGUUGGGAUGGGGACAGGGUGCACAGCAGGGCGGGGUAGGACCCCAGCCCGUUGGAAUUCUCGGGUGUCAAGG | 1.81 |
| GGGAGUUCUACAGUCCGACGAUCGUCCUGUGCUACACAUCGUAUGUACCGAAUCGGGGAGGGGUUUUUUUGGGGAAAGGGGAAAGUAUUAUGUUACGCCGUUCGGAUCUGCACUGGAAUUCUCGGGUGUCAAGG | 0.652 |
| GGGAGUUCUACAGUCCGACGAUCAGUCCUGUGCUACACAUCGUAUGUACCGAAUCAAAUUUAAACCCAAACCCCCCCAAAAAAGUAUUAUGUUACGCCGUUCGGAUCUGCACUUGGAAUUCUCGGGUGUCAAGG | -0.334 |
| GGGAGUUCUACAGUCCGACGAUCACCAUGCAGGUGGGCAUCUUUGGGAAGUGGGGCAAGGGGGGGAUAGGGAGGGGCGUAACACUUUGGGAACAGGUGGUCCCAGGUCGUUUCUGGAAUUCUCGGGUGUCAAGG | 1.21 |
| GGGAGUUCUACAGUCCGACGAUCCCUCAAGUCCUGUGCUACACAUCGUAUGUACCGAAUCGGAGGUUUGGAAAGGAAAGUAUUAUGUUACGCCGUUCGGAUCUGCACUUCCAGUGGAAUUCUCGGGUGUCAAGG | -0.187 |
| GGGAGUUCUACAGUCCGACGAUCGUCCUGUGCUACACAUCGUAUGUACCGAAUCGGGAAAAAGGGAAAAAAAGGGUUUGGGAAAGUAUUAUGUUACGCCGUUCGGAUCUGCACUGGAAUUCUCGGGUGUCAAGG | -0.498 |
| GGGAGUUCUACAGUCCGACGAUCCCUGUGCUACACAUCGUAUGUACCGAAUCGGGGAAAAAAAGGAAAAAAAGGGAAAAAAAGGAAAGUAUUAUGUUACGCCGUUCGGAUCUGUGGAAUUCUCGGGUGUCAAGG | -0.564 |
| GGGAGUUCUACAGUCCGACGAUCCUCAAGUCCUGUGCUACACAUCGUAUGUACCGAAUCGGAGGAAAGGUUUUUGGAAAGUAUUAUGUUACGCCGUUCGGAUCUGCACUUCCAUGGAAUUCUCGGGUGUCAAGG | -0.62 |
| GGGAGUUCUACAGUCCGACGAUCCUCAAGUCCUGUGCUACACAUCGUAUGUACCGAAUCGGGAGGGAGGGAAAGGGAAAGUAUUAUGUUACGCCGUUCGGAUCUGCACUUCCAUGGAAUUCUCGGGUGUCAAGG | 1.27 |
| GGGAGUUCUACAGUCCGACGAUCACCAUGCAGGUGGGCAUCUUUGAAAAGUGGGGCAAGGGGGGGAUAGGGAGGGGGGUAACACUUUGGGAACAGGUGGUCCCAGGUCGUUUCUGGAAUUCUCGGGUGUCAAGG | 1.33 |
| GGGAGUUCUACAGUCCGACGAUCUCAAGUCCUGUGCUACACAUCGUAUGUACCGAAUCGGCCCGGGGCCCGGCCCGGAAAGUAUUAUGUUACGCCGUUCGGAUCUGCACUUCCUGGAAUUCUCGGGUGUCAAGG | -0.608 |
| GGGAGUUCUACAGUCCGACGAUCCUGUGCUACACAUCGUAUGUACCGAAUCGGGGAAAAAAAGGAAAAAAAGGGGAAAAAAAGGAAAGUAUUAUGUUACGCCGUUCGGAUCUGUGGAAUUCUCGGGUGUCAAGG | -0.664 |
| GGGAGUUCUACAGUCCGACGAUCAGUCCUGUGCUACACAUCGUAUGUACCGAAUCGGGCCCCGGGGCCCCGGCCCCGGGGAAAGUAUUAUGUUACGCCGUUCGGAUCUGCACUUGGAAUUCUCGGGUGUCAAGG | -1.23 |

Sample 5
Target: ABI1, truncated, D143A, DHFR fusion (Arabidopsis thaliana)
Technique: DHFR PCA, deep sequencing
Medium: yeast
Setting: methotrexate growth selection, single substitutions
With: (+)-ABA 0.032 µM
Relative to: wild-type fitted maximum
Direction: higher = stronger binding
Starting sequence: PYL1, truncated, DHFR fusion (Arabidopsis thaliana); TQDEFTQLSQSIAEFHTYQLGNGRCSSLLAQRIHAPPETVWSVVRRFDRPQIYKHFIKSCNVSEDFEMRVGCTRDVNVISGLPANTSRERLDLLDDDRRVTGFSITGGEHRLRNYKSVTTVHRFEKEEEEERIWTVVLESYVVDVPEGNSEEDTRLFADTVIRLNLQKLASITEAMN; partner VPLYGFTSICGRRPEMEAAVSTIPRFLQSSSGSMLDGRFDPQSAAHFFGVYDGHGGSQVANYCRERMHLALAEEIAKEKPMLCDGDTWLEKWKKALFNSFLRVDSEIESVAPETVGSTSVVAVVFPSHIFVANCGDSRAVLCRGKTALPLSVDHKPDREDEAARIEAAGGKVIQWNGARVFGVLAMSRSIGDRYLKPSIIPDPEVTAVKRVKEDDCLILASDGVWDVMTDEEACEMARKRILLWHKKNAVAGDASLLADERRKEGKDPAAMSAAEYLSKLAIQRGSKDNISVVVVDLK
| Substitution | relative binding score [%] |
| --- | --- |
| V78R | 37.9 |
| G102S | 6.91 |
| N165W | 6.48 |
| F15N | 4.87 |
| T39S | 3.47 |
| N77M | 38 |
| R99F | 70.4 |
| T119W | -1.23 |
| I133V | 51.3 |
| E64L | 2.09 |
| R45C | 1.93 |
| C72N | 3.69 |
| N149L | 22 |
| E14F | -4.1 |

Excerpt of the above (sample 1):
| Substitution | binding fitness [natural log] |
| --- | --- |
| Q55E | -1.53 |
| L31F | -1.58 |
| V35H | -1.43 |
| L45N | -1.51 |
| V35M | -1.4 |
| M51K | -1.5 |
| E33V | -1.43 |
| L45P | -1.5 |
